Measurements collected from several papers.
A part holds a random share of what one study measured.

Sample 1 — method: RNA Bind-n-Seq; form: RNA; matrix: in vitro; tested at: not given; notes: RNA with constant flanks, ends assumed; baseline: input RNA pool; direction: higher = stronger binding
Target: RING finger protein unkempt homolog, zinc fingers 1-6, GST-SBP tag (UNK, Homo sapiens, UniProt Q9C0B0, residues 30-357)
Sequence of UniProt Q9C0B0 (30-357, looked up): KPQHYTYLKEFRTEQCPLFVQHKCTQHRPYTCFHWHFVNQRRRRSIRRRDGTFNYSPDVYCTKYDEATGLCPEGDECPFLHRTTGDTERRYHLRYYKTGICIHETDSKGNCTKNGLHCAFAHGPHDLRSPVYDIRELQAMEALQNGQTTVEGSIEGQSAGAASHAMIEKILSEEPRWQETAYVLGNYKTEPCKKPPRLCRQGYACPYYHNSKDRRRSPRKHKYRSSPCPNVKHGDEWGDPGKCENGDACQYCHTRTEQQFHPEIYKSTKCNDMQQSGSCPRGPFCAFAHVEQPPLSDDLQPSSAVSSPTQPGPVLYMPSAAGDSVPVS
Constant ends, left off below: GGGAGUUCUACAGUCCGACGAUC … CAACAGAGGAUUGAGCAUCA
Strand	bound/input enrichment [ratio]
GCAAUAAUAUGUCAAUAAGUUACAUAAAGAUGCCCAUGUGACAGCACCCCCAAUCAGUGGCUCCGAGGGCUUAAAAAUGCUGUAUUUAUUUUUAAAACUUUGGCUUAAAGGCAUAAGAAG	0.336
UGUCUCCACUCAGUGACGUGGGAUUUUUUUGUCUUCCUUUUGGCUUUAUUUUUAAACUGCUUCCGAUAUUACUGCUCAGUGUUUGUGAACUUUCCUAGUUCUCUAUGUUGUUAGUGCAGC	0.994
AUCCAGGCAGCAGACAGCACAGCUGUGAAUGGCAGCAUUACACCCACAGACAAAAAGACCGGAUUUUUGGGCCUUGGCUUAAUGGGAAGUGGCAUCGUCUCCAACUUGCUAAAAAUGGGU	0.116
GGGAAACAGUUUGAUUCUCCCAUGCCAAGUCCCUUUCAAGGGGGAAGCUUCACUCUUCCUUCCGAUGUCAUGAAGAAUGAAAUAGUUACAGAAACAUCGCCCUUUGCCCCUGCCUUUUUA	0.198
AGAGUCAAAGUUCUUCAAGAUUACACUGGCCUUAUACUCUUCCUGGAAGAGGACCACUACUCCGCCCCAGACUUUUACCAUGUCUUCAAAAAGAUGUGGAAACUGAAGCAGCAGGAGUGU	0.172
CUCUGCAUUGAACUUACGUAUCCAUGCCAAGGAAUGGAAUUUCCAUCCUGAGCCAGUUCAGUCCGGUGUCAAUUGAUACUAUUUUAAUUUUUUAUGCAAUCUGAUGAGAUGAGCUCAGAU	0.504
GUAGAAUUUAUUCUGUCUUUCAUUGACCACAUUGCUGGAGAUGAGGAUCACACAGAUGGAGCCGCCGCUUGUGCUGCUGGACUAAUAGGGGACUUAUGUACAGCAUUUGGGAAGGAUGUA	0.337
GAGAACAUUAGGCUAAAUGAUUUCCGAGUUUCCAGCUAGUCCUAGAGUUCUAUAUUUCUACACCGUUGAAUUAUUUUAUCAUGCUGUUGCUGGGGAAUAUGACUAACCCUUUUGAAGCUA	1.37

Sample 2 — mode: inhibitor; tested at: 20 µM
Target: Replicase polyprotein 1ab, nsp13 helicase (rep, Severe acute respiratory syndrome coronavirus 2, UniProt P0DTD1)
Structure (SMILES)	inhibition
CC(C)[C@H](CO)Nc1nc(Nc2cc(N)cc(Cl)c2)c2ncn(C(C)C)c2n1	8.91%
CN(C)Cc1cccc(N/C(=C2\C(=O)Nc3cc(C(N)=O)ccc32)c2ccccc2)c1	10.9%
C[C@H](NC(=O)[C@@H](O)c1cc(F)cc(F)c1)C(=O)N[C@@H]1C(=O)N(C)c2ccccc2-c2ccccc21	1.23%
CCC(CC)CC1(C(=O)Nc2ccccc2SC(=O)C(C)C)CCCCC1	-1.98%
CN(C)/C=N/c1c(I)cc(I)c(CCC(=O)O)c1I	-0.92%
CCOC(=O)C1=C[C@]2(CC)CCCN3CCc4c(n1c1ccccc41)[C@@H]32	4.96%
Nc1nc(CC(=O)Nc2ccc(CCNC[C@H](O)c3ccccc3)cc2)cs1	1.46%
O=C(O)[C@@H](c1ccc(OCc2ccc3ccccc3n2)cc1)C1CCCC1	7.28%
CCc1ccccc1OC[C@@H](O)CN[C@H]1CCCc2ccccc21	6.28%
COc1ccc2nc3n[nH]c(C)c3c(NCCOCCO)c2c1	-0.27%
CC1(C)[C@H]2CC[C@]1(C)[C@@H](O)[C@H]2O	8.66%
C=CCN1CCc2cc(O)c(O)cc2C(c2ccccc2)C1 (stereo not drawn)	1.36%
O=C(/C=C/c1ccc(O)c(O)c1)c1ccc(O)cc1O	-0.62%
Cc1cn(-c2cc(NC(=O)c3ccc(C)c(Nc4nccc(-c5cccnc5)n4)c3)cc(C(F)(F)F)c2)cn1	15.9%
CC(CNS(=O)(=O)C(C)C)c1ccc(-c2ccc(C#N)cc2)cc1 (stereo not drawn)	9.62%
CN1Cc2c(N)cccc2C(c2ccccc2)C1 (stereo not drawn)	3.23%
Cn1c(NCCN(CCO)CCCc2ccc([N+](=O)[O-])cc2)cc(=O)n(C)c1=O	6.15%
CC(C)(N)Cc1ccccc1	1.17%
Nc1[nH]nc2nc3ccccc3nc12	-0.99%
COc1cccc([C@H](O)C2CCN(CCc3ccc(F)cc3)CC2)c1OC	-0.91%
CO/N=C(\C(=O)N[C@@H]1C(=O)N2C(C(=O)O)=C(Cn3ccc(=N)n3CCO)CS[C@H]12)c1csc(N)n1	6.07%
O=[N+]([O-])c1ccc(O)c2ncccc12	7.96%
CO[C@@H]1[C@H](OC(=O)/C=C/C=C/C=C/C=C/C(=O)O)CC[C@]2(CO2)[C@H]1[C@@]1(C)O[C@@H]1CC=C(C)C	50.5%
NC(=O)c1cccc2cn(-c3ccc([C@@H]4CCCNC4)cc3)nc12	9.53%
O=c1ccc2ccccc2[nH]1	-2.15%

Sample 3 — observed: enzyme activity; mode: inhibitor; tested at: 20 µM; notes: primary screen
Target: Replicase polyprotein 1ab, main protease (rep, Severe acute respiratory syndrome coronavirus 2, UniProt P0DTD1)
SMILES	inhibition [%]
CCCC[C@H](NC(=O)[C@@H]1[C@@H]2[C@H](CN1C(=O)[C@@H](NC(=O)NC1(CS(=O)(=O)C(C)(C)C)CCCCC1)C(C)(C)C)C2(C)C)C(=O)C(=O)NC1CC1	76.1
O=c1c(O)cccc2cc(O)c(O)c(O)c12	101
CNc1nc(Nc2cn(C(C)(C)C#N)nc2C)ncc1C(F)(F)F	33.3
C=CC(=O)c1ccc2ccccc2c1	94.5

Sample 4 — cell line: HEK-293T/ACE2; tested at: 10 µM; time: 16 h; baseline: vehicle
SMILES	viability [%]
CCCCCCCCCCCCCCCCCCCCCCO	101
O=c1[nH]c2ccccc2n1C1CCN(CCCC(c2ccc(F)cc2)c2ccc(F)cc2)CC1	104
O=S(=O)(O)CCS	97.8
OC[C@H]1O[C@@H](O[C@@H]2[C@@H](CO)OC(O)(CO)[C@H]2O)[C@H](O)[C@@H](O)[C@H]1O (mixture of isomers)	99

Sample 5 — method: competition protein-binding microarray; form: double-stranded DNA, one strand shown; matrix: in vitro; tested at: 2 µM; added: Pho4 competitor, 0.05 µM; direction: higher = stronger binding; constant ends, left off below: … GTCTTGATTCGCTTGACGCTGCTG
Target: Centromere-binding protein 1, full length, His-tagged (CBF1, Saccharomyces cerevisiae, UniProt P17106, residues 1-351)
Sequence of UniProt P17106 (whole entry, looked up): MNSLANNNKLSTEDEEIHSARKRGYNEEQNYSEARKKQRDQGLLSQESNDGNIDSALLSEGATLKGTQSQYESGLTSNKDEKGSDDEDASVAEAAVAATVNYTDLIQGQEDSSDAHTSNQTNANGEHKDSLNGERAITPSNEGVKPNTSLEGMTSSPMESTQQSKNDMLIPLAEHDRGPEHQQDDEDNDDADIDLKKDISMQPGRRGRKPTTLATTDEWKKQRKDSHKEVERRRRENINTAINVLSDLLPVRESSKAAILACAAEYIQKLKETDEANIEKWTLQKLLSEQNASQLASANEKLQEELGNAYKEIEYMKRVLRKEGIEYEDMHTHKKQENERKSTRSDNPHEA
Notes: whole 60-bp probe, lowest competitor level
Strand	fluorescence intensity [a.u.]
GGAAACGACTGCGAACACGTGCAGATGCAAAGGACA	2040
GATTGGGAAATCTCTAATGTGACAGTCCATACTTGT	80.7
TCTGGGAGAGCCTGTCAGATGACGAATCAGAAGACA	136
GAGCAAGTTTCTTCACGTGTGACGCTGGCACATTAG	657
TTAATATTATACGAAAACGTGCAAAACGGCACAAAC	203
AAATTACTAAGTTGAAAAGTGGGTGACGCCGTATGA	79
TGATGTGGTTTCTACAGCTGGGTATTCACAATAAAA	68.4
TTGCTGTCTTCTACCCACGTCATATCAGTGGTATTC	68.7

Sample 6 — method: RNA Bind-n-Seq; form: RNA; matrix: in vitro; tested at: 200 nM; notes: whole 134-nt RNA, ends assumed; added: 150 mM KCl; baseline: input library; direction: higher = stronger binding
Target: Ras GTPase-activating protein-binding protein 1, full length (G3BP1, Homo sapiens, UniProt Q13283)
Sequence of UniProt Q13283 (whole entry, looked up): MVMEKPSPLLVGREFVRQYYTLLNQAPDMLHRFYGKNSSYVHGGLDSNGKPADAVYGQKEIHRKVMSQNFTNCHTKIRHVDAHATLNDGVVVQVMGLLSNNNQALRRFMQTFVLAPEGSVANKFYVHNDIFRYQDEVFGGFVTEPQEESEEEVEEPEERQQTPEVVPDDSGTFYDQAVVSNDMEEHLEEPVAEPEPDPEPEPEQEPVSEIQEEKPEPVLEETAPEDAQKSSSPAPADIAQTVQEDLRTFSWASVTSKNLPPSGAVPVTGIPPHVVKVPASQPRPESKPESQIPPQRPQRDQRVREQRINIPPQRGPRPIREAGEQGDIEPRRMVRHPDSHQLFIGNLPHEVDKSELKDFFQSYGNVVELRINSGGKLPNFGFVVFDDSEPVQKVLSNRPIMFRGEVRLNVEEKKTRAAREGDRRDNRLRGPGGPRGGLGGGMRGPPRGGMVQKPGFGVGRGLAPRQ
Constant ends, left off below: GGGAGUUCUACAGUCCGACGAUC … UGGAAUUCUCGGGUGUCAAGG
Strand	log2 enrichment
UGGGAGGUGGAUUUUGUUUAUUUUUUUAGCUCAUUUCCAGGGGUGGGAAUUAUUUUUUAAUAUGUGUCAUGAAUAAAGUUGUUUUUGAAA	0.276
UAGGUGUUAUCUUCAGGAAGGCACACUGGACCUGCUAAAUUAACAAAUGGAAAGAAAGCGUAAGUACUUGAAGACGUUUACAACUUCAGA	-1.77
CACAGACAACACGCACCCACACAGACACAGAGGCAAGGGGUUGGGAUGGGGACAGGGUGCACAGCAGGGCGGGGUAGGACCCCAGCCCCU	1.92
UGGCCCUGGUGGCAUGCGGGGAGGAAGAGGUGGCCUCAUGGAUCGUGGUGGUCCCGGUGGAAUGGUCAGAGGUGGCCGUGGUGGAGACAG	0.0839
AAGUCCUGUGCUACACAUCGUAUGUACCGAAUCGGGUUUUGGGUUUUGGGUUUUGGAAAGUAUUAUGUUACGCCGUUCGGAUCUGCACUU	-0.893
GCAGGAAGUAAAAACAAAUGGAAAUGAUUCGGAUAGUGGCAGGGGUGGGGGUUGCUAAGGAAAGGGUGGGAUGGGAGUGGGUAAAGAGUU	1.33
GUCCUGUGCUACACAUCGUAUGUACCGAAUCGGGGAAAAAGGGAAAAAGGGAAAAAGGAAAGUAUUAUGUUACGCCGUUCGGAUCUGCAC	-0.441
CCUCAAGUCCUGUGCUACACAUCGUAUGUACCGAAUCGGGGUGGGGUGGUGGAAAGUAUUAUGUUACGCCGUUCGGAUCUGCACUUCCAG	0.566

Excerpt of the above (sample 1):
Strand	bound/input enrichment [ratio]
AUCCAGGCAGCAGACAGCACAGCUGUGAAUGGCAGCAUUACACCCACAGACAAAAAGACCGGAUUUUUGGGCCUUGGCUUAAUGGGAAGUGGCAUCGUCUCCAACUUGCUAAAAAUGGGU	0.116
CUCUGCAUUGAACUUACGUAUCCAUGCCAAGGAAUGGAAUUUCCAUCCUGAGCCAGUUCAGUCCGGUGUCAAUUGAUACUAUUUUAAUUUUUUAUGCAAUCUGAUGAGAUGAGCUCAGAU	0.504
GUAGAAUUUAUUCUGUCUUUCAUUGACCACAUUGCUGGAGAUGAGGAUCACACAGAUGGAGCCGCCGCUUGUGCUGCUGGACUAAUAGGGGACUUAUGUACAGCAUUUGGGAAGGAUGUA	0.337
GGGAAACAGUUUGAUUCUCCCAUGCCAAGUCCCUUUCAAGGGGGAAGCUUCACUCUUCCUUCCGAUGUCAUGAAGAAUGAAAUAGUUACAGAAACAUCGCCCUUUGCCCCUGCCUUUUUA	0.198
